{"data": "Results pooled from the literature", "OPRD1": "Delta-type opioid receptor (OPRD1, Homo sapiens, UniProt P41143)", "OPRM1": "Mu-type opioid receptor (OPRM1, Homo sapiens, UniProt P35372)", "note": "Protocols differ between the studies behind these lines. Numbers after ± are the reported error.", "UniProt P41143, sequence (whole entry, looked up)": "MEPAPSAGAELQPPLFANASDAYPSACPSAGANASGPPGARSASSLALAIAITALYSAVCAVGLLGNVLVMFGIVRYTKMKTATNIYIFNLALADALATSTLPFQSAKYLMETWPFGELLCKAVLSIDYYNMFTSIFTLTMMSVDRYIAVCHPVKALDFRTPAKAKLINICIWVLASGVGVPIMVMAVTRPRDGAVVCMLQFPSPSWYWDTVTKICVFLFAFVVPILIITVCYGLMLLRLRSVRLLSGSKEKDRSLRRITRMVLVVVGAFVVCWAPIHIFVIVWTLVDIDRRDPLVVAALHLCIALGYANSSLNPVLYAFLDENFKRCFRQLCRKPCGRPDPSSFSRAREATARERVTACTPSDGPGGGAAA", "UniProt P35372, sequence (whole entry, looked up)": "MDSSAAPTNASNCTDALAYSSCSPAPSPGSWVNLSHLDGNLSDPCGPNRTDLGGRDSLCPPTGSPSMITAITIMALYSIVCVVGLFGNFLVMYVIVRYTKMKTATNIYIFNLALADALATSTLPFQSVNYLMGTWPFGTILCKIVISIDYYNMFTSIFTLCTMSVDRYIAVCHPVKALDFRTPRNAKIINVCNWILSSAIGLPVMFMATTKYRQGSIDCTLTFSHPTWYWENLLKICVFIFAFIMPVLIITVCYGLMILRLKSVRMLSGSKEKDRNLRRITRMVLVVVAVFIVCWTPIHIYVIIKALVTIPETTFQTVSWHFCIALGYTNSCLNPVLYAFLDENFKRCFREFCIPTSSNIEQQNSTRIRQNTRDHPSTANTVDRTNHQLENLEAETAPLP", "UniProt A0A125YHX7, sequence (whole entry, looked up)": "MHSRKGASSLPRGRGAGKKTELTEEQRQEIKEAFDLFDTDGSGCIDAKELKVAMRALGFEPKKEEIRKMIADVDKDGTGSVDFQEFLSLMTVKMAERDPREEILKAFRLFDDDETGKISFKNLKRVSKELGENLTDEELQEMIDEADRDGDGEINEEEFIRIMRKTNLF", "UniProt P15151, sequence (whole entry, looked up)": "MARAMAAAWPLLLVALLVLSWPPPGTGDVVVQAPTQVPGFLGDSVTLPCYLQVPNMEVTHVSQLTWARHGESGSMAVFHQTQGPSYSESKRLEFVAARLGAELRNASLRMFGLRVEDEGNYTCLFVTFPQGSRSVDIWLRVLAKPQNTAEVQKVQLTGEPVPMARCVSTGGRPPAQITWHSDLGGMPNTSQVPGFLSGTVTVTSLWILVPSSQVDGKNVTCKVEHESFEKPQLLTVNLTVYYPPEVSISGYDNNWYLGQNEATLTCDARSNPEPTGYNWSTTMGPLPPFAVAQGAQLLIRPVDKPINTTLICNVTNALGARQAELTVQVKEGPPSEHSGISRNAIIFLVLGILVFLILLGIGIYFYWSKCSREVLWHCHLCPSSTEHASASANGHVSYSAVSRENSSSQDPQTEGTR", "UniProt P02769, sequence (whole entry, looked up)": "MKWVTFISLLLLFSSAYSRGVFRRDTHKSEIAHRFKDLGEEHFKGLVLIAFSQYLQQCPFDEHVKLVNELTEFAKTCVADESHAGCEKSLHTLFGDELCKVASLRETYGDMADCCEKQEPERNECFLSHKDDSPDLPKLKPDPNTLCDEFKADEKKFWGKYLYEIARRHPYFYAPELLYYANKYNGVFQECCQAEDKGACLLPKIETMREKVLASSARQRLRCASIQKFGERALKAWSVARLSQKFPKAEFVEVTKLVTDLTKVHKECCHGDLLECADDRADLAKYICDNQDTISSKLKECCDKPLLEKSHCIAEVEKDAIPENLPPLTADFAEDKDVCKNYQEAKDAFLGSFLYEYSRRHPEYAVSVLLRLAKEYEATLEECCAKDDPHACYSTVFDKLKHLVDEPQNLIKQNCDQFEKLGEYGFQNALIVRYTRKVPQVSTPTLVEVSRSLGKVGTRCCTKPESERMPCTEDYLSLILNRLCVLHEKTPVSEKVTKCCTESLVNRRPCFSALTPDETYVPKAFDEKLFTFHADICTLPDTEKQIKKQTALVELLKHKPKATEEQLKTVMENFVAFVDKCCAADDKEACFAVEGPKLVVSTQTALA", "UniProt P47871, sequence (whole entry, looked up)": "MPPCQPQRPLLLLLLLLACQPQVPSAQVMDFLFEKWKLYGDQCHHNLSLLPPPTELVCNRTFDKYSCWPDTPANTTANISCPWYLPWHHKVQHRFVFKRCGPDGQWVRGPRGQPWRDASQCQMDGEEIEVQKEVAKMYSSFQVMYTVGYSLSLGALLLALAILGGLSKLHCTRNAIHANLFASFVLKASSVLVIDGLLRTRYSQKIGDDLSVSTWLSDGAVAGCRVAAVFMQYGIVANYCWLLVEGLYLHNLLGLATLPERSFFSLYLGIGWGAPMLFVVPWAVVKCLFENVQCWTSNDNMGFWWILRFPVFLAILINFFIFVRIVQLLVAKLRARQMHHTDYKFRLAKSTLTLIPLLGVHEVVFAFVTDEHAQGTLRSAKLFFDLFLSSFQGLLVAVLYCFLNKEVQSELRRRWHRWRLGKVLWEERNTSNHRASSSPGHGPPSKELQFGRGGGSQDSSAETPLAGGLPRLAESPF", "UniProt P43220, sequence (whole entry, looked up)": "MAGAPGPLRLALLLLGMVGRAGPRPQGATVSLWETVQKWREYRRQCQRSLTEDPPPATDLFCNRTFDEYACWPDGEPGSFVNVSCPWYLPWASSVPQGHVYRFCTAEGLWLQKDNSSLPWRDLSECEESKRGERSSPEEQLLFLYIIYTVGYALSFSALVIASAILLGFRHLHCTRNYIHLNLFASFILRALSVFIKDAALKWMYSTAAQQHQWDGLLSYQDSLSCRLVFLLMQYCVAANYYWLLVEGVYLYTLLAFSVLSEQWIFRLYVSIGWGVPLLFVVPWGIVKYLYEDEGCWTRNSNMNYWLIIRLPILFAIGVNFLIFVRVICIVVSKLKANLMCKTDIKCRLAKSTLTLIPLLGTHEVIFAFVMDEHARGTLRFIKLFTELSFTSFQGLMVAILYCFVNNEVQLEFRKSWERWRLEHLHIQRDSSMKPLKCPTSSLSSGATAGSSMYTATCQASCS"}
{"Compound": "CC(C)C[C@H](NC(=O)[C@H](CO[C@@H]1O[C@H](CO)[C@@H](O[C@@H]2O[C@H](CO)[C@H](O)[C@H](O)[C@H]2O)[C@H](O)[C@H]1O)NC(=O)[C@H](CCCCN)NC(=O)[C@H](CC(C)C)NC(=O)CNC(=O)[C@H](CCCCN)NC(=O)[C@H](CCC(=O)O)NC(=O)[C@H](C)NC(=O)[C@H](CC(C)C)NC(=O)[C@H](CC(N)=O)NC(=O)[C@@H]1CCCN1C(=O)[C@H](CC(C)C)NC(=O)[C@H](Cc1ccccc1)NC(=O)CNC(=O)[C@H](NC(=O)[C@@H](N)Cc1ccc(O)cc1)[C@H](C)O)C(N)=O", "target": "OPRD1", "test": "ligand displacement, radioligand", "setting": "pH 7.5, cell membranes", "quantity": "Ki", "result": "12 nM"}
{"Compound": "CCCCCCCCCCCCCCCC(=O)N[C@@H](CCC(=O)NCCOCCOCCC(=O)NCCOCCOCCC(=O)NCCCC[C@H](NC(=O)[C@H](CC(=O)O)NC(=O)[C@H](CC(C)C)NC(=O)[C@H](Cc1ccc(O)cc1)NC(=O)[C@H](CCCCN)NC(=O)[C@H](CO)NC(=O)[C@H](Cc1ccc(O)cc1)NC(=O)[C@H](CC(=O)O)NC(=O)[C@H](CO)NC(=O)[C@@H](NC(=O)[C@H](Cc1ccccc1)NC(=O)[C@@H](NC(=O)CNC(=O)[C@H](CCC(N)=O)NC(=O)[C@@H](CO)NC(=O)[C@@H](N)Cc1c[nH]cn1)[C@@H](C)O)[C@@H](C)O)C(=O)N[C@@H](CCCNC(=N)N)C(=O)N[C@@H](CCCNC(=N)N)C(=O)N[C@@H](C)C(=O)N[C@@H](CCC(N)=O)C(=O)N[C@@H](CC(=O)O)C(=O)N[C@@H](Cc1ccccc1)C(=O)N[C@H](C(=O)N[C@@H](CCC(N)=O)C(=O)N[C@@H](Cc1c[nH]c2ccccc12)C(=O)N[C@@H](CC(C)C)C(=O)N[C@@H](CCCC)C(=O)N[C@@H](CC(N)=O)C(=O)N[C@H](C(=O)NCC(=O)NCC(=O)N1CCC[C@H]1C(=O)N[C@@H](CO)C(=O)N[C@@H](CO)C(=O)NCC(=O)N[C@@H](C)C(=O)N1CCC[C@H]1C(=O)N1CCC[C@H]1C(=O)N1CCC[C@H]1C(=O)N[C@@H](CO)C(N)=O)[C@@H](C)O)C(C)C)C(=O)O", "target": "GLP1R (Homo sapiens, UniProt P43220)", "test": "reporter gene, agonist, luciferase", "quantity": "EC50", "result": "1.14 nM"}
{"Compound": "CC[C@H](C)[C@@H]1NC(=O)[C@H](Cc2c[nH]cn2)NC(=O)[C@H]([C@@H](C)CC)NC(=O)[C@H](CO)NC(=O)[C@H](CCCCN)NC(=O)[C@H](CCCNC(=N)N)NC(=O)[C@H]([C@@H](C)O)NC(=O)[C@H](CC(N)=O)NC(=O)[C@H](CC(N)=O)NC(=O)[C@H](CC(N)=O)NC(=O)[C@@H]2CCCN2C(=O)[C@H](CCCNC(=N)N)NC(=O)[C@H]([C@@H](C)O)NC(=O)[C@@H](NC(=O)[C@H](CC(N)=O)NC(=O)[C@@H](NC(=O)[C@H](CCC(=O)O)NC(=O)CCCCCNC(=O)CCCC[C@@H]2SC[C@@H]3NC(=O)N[C@@H]32)[C@@H](C)CC)CSSC[C@@H](C(=O)N[C@@H](CC(=O)N[C@@H]2O[C@H](CO)[C@@H](O[C@@H]3O[C@H](CO)[C@@H](O[C@@H]4O[C@H](CO[C@H]5O[C@H](CO[C@H]6O[C@H](CO)[C@@H](O)[C@H](O)[C@@H]6O[C@H]6O[C@H](CO)[C@@H](O)[C@H](O)[C@@H]6O)[C@@H](O)[C@H](O[C@H]6O[C@H](CO)[C@@H](O)[C@H](O)[C@@H]6O[C@H]6O[C@H](CO)[C@@H](O)[C@H](O)[C@@H]6O)[C@@H]5O)[C@@H](O)[C@H](O[C@H]5O[C@H](CO)[C@@H](O)[C@H](O)[C@@H]5O[C@H]5O[C@H](CO)[C@@H](O)[C@H](O)[C@@H]5O[C@H]5O[C@H](CO)[C@@H](O)[C@H](O)[C@@H]5O)[C@@H]4O)[C@H](O)[C@H]3NC(C)=O)[C@H](O)[C@H]2NC(C)=O)C(=O)N[C@H](C(=O)N[C@@H](CO)C(=O)N[C@@H](CCCNC(=N)N)C(=O)N[C@@H](C)C(=O)N[C@@H](CCCCN)C(=O)N[C@@H](Cc2c[nH]c3ccccc23)C(=O)N[C@@H](CC(N)=O)C(N)=O)[C@@H](C)CC)NC(=O)[C@H](Cc2c[nH]cn2)NC(=O)[C@H](C)NC(=O)[C@H](CCC(N)=O)NC(=O)[C@H](CCCNC(=N)N)NC(=O)[C@H]([C@@H](C)CC)NC(=O)[C@H](CC(=O)O)NC(=O)CNC(=O)[C@H]([C@@H](C)CC)NC(=O)[C@H]([C@@H](C)CC)NC(=O)[C@H](CCC(=O)O)NC(=O)CNC(=O)[C@H]([C@@H](C)O)NC(=O)[C@H]([C@@H](C)O)NC(=O)[C@H](Cc2ccc(O)cc2)NC(=O)[C@H](Cc2ccccc2)NC(=O)[C@H](C)NC(=O)[C@H](CCCNC(=N)N)NC(=O)CNC(=O)[C@@H]2CCCN2C(=O)CNC1=O", "target": "PGT128 antibody", "test": "SPR", "setting": "pH 7.4, 25 °C", "quantity": "Kd", "result": "3650 nM"}
{"Compound": "Cc1cc(O)cc(C)c1C[C@H](N)C(=O)NCC(=O)NCC(=O)N[C@@H](Cc1ccccc1)C(=O)N[C@H](C(=O)NCC(=O)N[C@@H](C)C(=O)N[C@@H](CCCNC(=N)N)C(=O)N[C@@H](CCCCN)C(=O)N[C@@H](CO)C(=O)N[C@@H](C)C(=O)N[C@@H](CCCNC(=N)N)C(=O)N[C@@H](CCCCN)C(N)=O)[C@@H](C)O", "target": "OPRD1", "test": "GTPγS binding, agonist, radiometric", "setting": "cell membranes", "quantity": "EC50", "result": "6.76 nM"}
{"Compound": "CC(C)C[C@H](NC(=O)[C@H](CO)NC(=O)[C@H](CCCCN)NC(=O)[C@H](CC(C)C)NC(=O)[C@H](C)NC(=O)[C@H](CCCCN)NC(=O)[C@H](CCC(=O)O)NC(=O)C(C)(C)NC(=O)[C@H](CC(C)C)NC(=O)[C@H](CC(N)=O)NC(=O)[C@@H]1CCCN1C(=O)[C@H](CC(C)C)NC(=O)[C@H](Cc1ccccc1)NC(=O)CNC(=O)[C@H](NC(=O)[C@@H](N)Cc1ccc(O)cc1)[C@H](C)O)C(N)=O", "target": "OPRM1", "test": "radioligand displacement", "test system": "CHO membranes", "setting": "60 min, pH 7.5, 25 °C, with: 0.25 nM [3H]DAMGO", "quantity": "Ki", "result": "21 ± 2.6 nM"}
{"Compound": "CC(=O)N[C@@H](Cc1c[nH]cn1)C(=O)N[C@@H](CCCNC(=N)N)C(=O)N[C@@H](CCCNC(=N)N)C(=O)N[C@@H](CCCNC(=N)N)C(=O)N[C@@H](CCCNC(=N)N)C(=O)N[C@@H](CCCNC(=N)N)C(=O)N[C@@H](CCCNC(=N)N)C(=O)N[C@@H](CCCNC(=N)N)C(=O)N[C@@H](CCCNC(=N)N)C(=O)N[C@@H](Cc1c[nH]cn1)C(N)=O", "target": "Albumin (ALB, Bos taurus, UniProt P02769)", "test": "fluorescence quenching", "setting": "with: site competitor digitoxin", "quantity": "Kb", "result": "730000 M⁻¹"}
{"Compound": "CCCC[C@@H]1NC(=O)[C@H](Cc2ccc(F)cc2)NC(=O)[C@H](CCC(N)=O)NC(=O)[C@H](Cc2ccc(O)cc2)NC(=O)[C@H](Cc2c[nH]c3ccccc23)NC(=O)[C@@H](C)NC(=O)[C@H](CCC(=O)N[C@@H](CCCCN)C(N)=O)NC(=O)[C@@H](C)NC(=O)[C@@H](C)NC(=O)[C@@H](C)NC1=O", "target": "Gag polyprotein, p6 deleted (gag, Human immunodeficiency virus type 1 group M subtype B, UniProt P03347)", "test": "fluorescence anisotropy", "test system": "HIV-1", "setting": "with: 100 nM fluorescein-labelled peptide", "quantity": "Kd", "result": "800 to 900 nM"}
{"Compound": "CC[C@H](C)[C@H](NC(=O)[C@H](CC(C)C)NC(=O)[C@H](CC(C)C)NC(=O)CNC(=O)[C@H](CCCCN)NC(=O)[C@H](C)NC(=O)[C@H](CC(C)C)NC(=O)[C@H](CC(C)C)NC(=O)[C@H](CCCCN)NC(=O)[C@H](Cc1c[nH]c2ccccc12)NC(=O)[C@@H](N)CC(N)=O)C(=O)N[C@@H](CCCNC(=N)N)C(=O)N[C@@H](CCC(=O)O)C(=O)N[C@@H](CCCNC(=N)N)C(=O)N[C@@H](CC(C)C)C(=O)N[C@@H](CCCCN)C(=O)N[C@@H](CCCNC(=N)N)C(=O)O", "target": "Centrin-1, C-terminal domain (CEN1, Toxoplasma gondii, UniProt A0A125YHX7)", "test": "binding, ITC", "setting": "pH 7.5, 25 °C, with: 5 mM CaCl2", "quantity": "Kd", "result": "6.7 ± 1.1 nM"}
{"Compound": "CC(C)C[C@H](NC(=O)[C@H](CO[C@@H]1O[C@H](CO)[C@@H](O)[C@H](O)[C@H]1O)NC(=O)[C@H](CCCCN)NC(=O)[C@H](CC(C)C)NC(=O)C(C)(C)NC(=O)[C@H](CCCCN)NC(=O)[C@H](CCC(=O)O)NC(=O)[C@H](C)NC(=O)[C@H](CC(C)C)NC(=O)[C@H](CC(N)=O)NC(=O)[C@@H]1CCCN1C(=O)[C@H](CC(C)C)NC(=O)[C@H](Cc1ccccc1)NC(=O)CNC(=O)[C@H](NC(=O)[C@@H](N)Cc1ccc(O)cc1)[C@H](C)O)C(N)=O", "target": "OPRD1", "test": "ligand displacement, radioligand", "setting": "pH 7.5, cell membranes", "quantity": "Ki", "result": "3.6 nM"}
{"Compound": "CC[C@H](C)[C@@H]1NC(=O)[C@@H]2CCCN2C(=O)[C@H](Cc2c[nH]c3ccccc23)NC(=O)[C@H](CO)NC(=O)[C@H](Cc2c[nH]c3ccccc23)NC(=O)[C@H](CC(N)=O)NC(=O)[C@H](CCCCN)NC(=O)[C@H](CCSC)NC(=O)[C@@H]2CSCCC(=O)N3CN(CN(C3)C(=O)CCSC[C@H](NC(=O)[C@H](C)N)C(=O)N3CCC[C@H]3C(=O)N[C@@H](Cc3ccccc3)C(=O)NCC(=O)N2)C(=O)CCSC[C@@H](C(=O)N[C@H](C(=O)N[C@@H](CC(N)=O)C(=O)N[C@@H](CCCCN)C(=O)N(C)CC(=O)N(C)CC(=O)N(C)CC(=O)N(C)CC(=O)N(C)CC(=O)N(C)CC(=O)N[C@@H](CCCCNC(=O)c2ccc(C(=O)O)c(-c3c4ccc(=O)cc-4oc4cc(O)ccc34)c2)C(N)=O)[C@@H](C)O)NC(=O)[C@H](Cc2c[nH]c3ccccc23)NC1=O", "target": "Poliovirus receptor (PVR, Homo sapiens, UniProt P15151)", "test": "fluorescence polarization", "quantity": "Kd", "result": "> 2000 nM"}
{"Compound": "CC(C)C[C@H](NC(=O)[C@H](CO[C@@H]1O[C@H](CO)[C@@H](O[C@@H]2O[C@H](CO)[C@H](O)[C@H](O)[C@H]2O)[C@H](O)[C@H]1O)NC(=O)[C@H](CCCCN)NC(=O)[C@H](CC(C)C)NC(=O)CNC(=O)[C@H](CCCCN)NC(=O)[C@H](CCC(=O)O)NC(=O)CNC(=O)[C@H](CC(C)C)NC(=O)[C@H](CC(N)=O)NC(=O)[C@@H]1CCCN1C(=O)[C@H](CC(C)C)NC(=O)[C@H](Cc1ccccc1)NC(=O)CNC(=O)[C@H](NC(=O)[C@@H](N)Cc1ccc(O)cc1)[C@H](C)O)C(N)=O", "target": "OPRM1", "test": "radioligand displacement", "test system": "CHO membranes", "setting": "60 min, pH 7.5, 25 °C, with: 0.25 nM [3H]DAMGO", "quantity": "Ki", "result": "5 ± 0.37 nM"}
{"Compound": "CCCCCCCCCCCCCCCC(=O)N[C@@H](CCC(=O)NCCCC[C@H](NC(=O)[C@H](CC(=O)O)NC(=O)[C@H](CO)NC(=O)[C@@H](NC(=O)[C@H](Cc1ccccc1)NC(=O)[C@@H](NC(=O)CNC(=O)[C@H](CCC(N)=O)NC(=O)[C@H](C)NC(=O)[C@@H](Cc1ccc(O)cc1)NC(C)=O)[C@@H](C)O)[C@@H](C)O)C(=O)N[C@@H](CO)C(=O)N[C@@H](CCCCN)C(=O)N[C@@H](Cc1ccc(O)cc1)C(=O)N[C@@H](CC(C)C)C(=O)N[C@@H](CC(=O)O)C(=O)N[C@@H](CCC(=O)O)C(=O)N[C@@H](CCCNC(=N)N)C(=O)N[C@@H](C)C(=O)N[C@@H](C)C(=O)N[C@@H](CCC(N)=O)C(=O)N[C@@H](CC(=O)O)C(=O)N[C@@H](Cc1ccccc1)C(=O)N[C@H](C(=O)N[C@@H](CCC(N)=O)C(=O)N[C@@H](Cc1c[nH]c2ccccc12)C(=O)N[C@@H](CC(C)C)C(=O)N[C@@H](CC(C)C)C(=O)N[C@@H](CCC(=O)O)C(=O)NCC(=O)NCC(=O)N1CCC[C@H]1C(=O)N[C@@H](CO)C(=O)N[C@@H](CO)C(=O)NCC(=O)N[C@@H](C)C(=O)N1CCC[C@H]1C(=O)N1CCC[C@H]1C(=O)N1CCC[C@H]1C(=O)N[C@@H](CO)C(N)=O)C(C)C)C(=O)O", "target": "Glucagon receptor (GCGR, Homo sapiens, UniProt P47871)", "test": "reporter gene, agonist, luciferase", "quantity": "EC50", "result": "0.0105 nM"}
